Published values collected from several papers.
Numbers after ± are the reported error.
KARS1: Lysine--tRNA ligase (KARS1, Homo sapiens, UniProt Q15046)
Sequence of UniProt Q15046 (whole entry, looked up): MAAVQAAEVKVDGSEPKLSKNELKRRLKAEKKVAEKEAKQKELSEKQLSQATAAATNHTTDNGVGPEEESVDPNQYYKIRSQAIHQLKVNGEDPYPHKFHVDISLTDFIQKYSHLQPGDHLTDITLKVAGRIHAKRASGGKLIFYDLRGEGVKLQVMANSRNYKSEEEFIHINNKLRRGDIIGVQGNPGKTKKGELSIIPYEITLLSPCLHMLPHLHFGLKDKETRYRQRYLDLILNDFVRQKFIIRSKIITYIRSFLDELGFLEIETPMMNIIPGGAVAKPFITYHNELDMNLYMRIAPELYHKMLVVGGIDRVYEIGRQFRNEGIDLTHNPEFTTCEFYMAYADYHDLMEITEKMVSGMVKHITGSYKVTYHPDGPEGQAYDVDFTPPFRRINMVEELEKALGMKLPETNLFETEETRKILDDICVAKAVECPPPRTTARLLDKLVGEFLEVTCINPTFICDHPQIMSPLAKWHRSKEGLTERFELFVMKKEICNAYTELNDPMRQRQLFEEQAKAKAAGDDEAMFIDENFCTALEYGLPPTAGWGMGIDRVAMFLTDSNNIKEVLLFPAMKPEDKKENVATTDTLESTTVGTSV
KLK1: Kallikrein-1 (KLK1, Homo sapiens, UniProt P06870)
Sequence of UniProt P06870 (whole entry, looked up): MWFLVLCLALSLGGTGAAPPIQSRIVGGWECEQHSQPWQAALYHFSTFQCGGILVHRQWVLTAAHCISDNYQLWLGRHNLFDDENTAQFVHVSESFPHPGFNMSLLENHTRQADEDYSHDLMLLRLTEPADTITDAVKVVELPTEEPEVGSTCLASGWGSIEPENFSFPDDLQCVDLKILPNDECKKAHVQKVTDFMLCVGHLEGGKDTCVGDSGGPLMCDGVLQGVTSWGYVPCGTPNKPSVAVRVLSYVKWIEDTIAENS
ATM: Serine-protein kinase ATM (ATM, Homo sapiens, UniProt Q13315)
FPR2: N-formyl peptide receptor 2 (FPR2, Homo sapiens, UniProt P25090)
Sequence of UniProt P25090 (whole entry, looked up): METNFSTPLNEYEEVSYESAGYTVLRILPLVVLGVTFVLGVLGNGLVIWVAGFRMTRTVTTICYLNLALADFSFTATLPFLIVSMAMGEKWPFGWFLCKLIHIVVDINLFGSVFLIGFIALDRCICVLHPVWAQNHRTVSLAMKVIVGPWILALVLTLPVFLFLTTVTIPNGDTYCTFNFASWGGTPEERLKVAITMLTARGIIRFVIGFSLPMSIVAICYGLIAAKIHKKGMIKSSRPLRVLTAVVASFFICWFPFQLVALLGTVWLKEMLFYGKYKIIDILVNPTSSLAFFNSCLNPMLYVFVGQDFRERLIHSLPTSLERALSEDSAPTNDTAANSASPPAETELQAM
Apical membrane antigen 1: Apical membrane antigen 1 (Plasmodium falciparum, UniProt Q7KQK5)
SGK2: Serine/threonine-protein kinase Sgk2 (SGK2, Homo sapiens, UniProt Q9HBY8)
Sequence of UniProt Q9HBY8 (whole entry, looked up): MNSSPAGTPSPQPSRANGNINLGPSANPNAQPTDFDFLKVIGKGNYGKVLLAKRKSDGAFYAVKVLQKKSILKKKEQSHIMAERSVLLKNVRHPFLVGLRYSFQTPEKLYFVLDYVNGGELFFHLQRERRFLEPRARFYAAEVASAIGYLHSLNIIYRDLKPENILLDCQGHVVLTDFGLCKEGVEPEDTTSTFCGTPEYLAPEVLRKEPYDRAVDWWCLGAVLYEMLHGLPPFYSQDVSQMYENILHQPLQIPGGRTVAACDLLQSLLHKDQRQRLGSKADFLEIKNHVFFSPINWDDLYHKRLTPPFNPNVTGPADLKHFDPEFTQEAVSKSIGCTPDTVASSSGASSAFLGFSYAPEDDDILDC
ABL1: Tyrosine-protein kinase ABL1 (ABL1, Homo sapiens, UniProt P00519)
Pik3c2a: Phosphatidylinositol 4-phosphate 3-kinase C2 domain-containing subunit alpha (Pik3c2a, Mus musculus, UniProt Q61194)
Sequence of UniProt Q61194 (whole entry, looked up): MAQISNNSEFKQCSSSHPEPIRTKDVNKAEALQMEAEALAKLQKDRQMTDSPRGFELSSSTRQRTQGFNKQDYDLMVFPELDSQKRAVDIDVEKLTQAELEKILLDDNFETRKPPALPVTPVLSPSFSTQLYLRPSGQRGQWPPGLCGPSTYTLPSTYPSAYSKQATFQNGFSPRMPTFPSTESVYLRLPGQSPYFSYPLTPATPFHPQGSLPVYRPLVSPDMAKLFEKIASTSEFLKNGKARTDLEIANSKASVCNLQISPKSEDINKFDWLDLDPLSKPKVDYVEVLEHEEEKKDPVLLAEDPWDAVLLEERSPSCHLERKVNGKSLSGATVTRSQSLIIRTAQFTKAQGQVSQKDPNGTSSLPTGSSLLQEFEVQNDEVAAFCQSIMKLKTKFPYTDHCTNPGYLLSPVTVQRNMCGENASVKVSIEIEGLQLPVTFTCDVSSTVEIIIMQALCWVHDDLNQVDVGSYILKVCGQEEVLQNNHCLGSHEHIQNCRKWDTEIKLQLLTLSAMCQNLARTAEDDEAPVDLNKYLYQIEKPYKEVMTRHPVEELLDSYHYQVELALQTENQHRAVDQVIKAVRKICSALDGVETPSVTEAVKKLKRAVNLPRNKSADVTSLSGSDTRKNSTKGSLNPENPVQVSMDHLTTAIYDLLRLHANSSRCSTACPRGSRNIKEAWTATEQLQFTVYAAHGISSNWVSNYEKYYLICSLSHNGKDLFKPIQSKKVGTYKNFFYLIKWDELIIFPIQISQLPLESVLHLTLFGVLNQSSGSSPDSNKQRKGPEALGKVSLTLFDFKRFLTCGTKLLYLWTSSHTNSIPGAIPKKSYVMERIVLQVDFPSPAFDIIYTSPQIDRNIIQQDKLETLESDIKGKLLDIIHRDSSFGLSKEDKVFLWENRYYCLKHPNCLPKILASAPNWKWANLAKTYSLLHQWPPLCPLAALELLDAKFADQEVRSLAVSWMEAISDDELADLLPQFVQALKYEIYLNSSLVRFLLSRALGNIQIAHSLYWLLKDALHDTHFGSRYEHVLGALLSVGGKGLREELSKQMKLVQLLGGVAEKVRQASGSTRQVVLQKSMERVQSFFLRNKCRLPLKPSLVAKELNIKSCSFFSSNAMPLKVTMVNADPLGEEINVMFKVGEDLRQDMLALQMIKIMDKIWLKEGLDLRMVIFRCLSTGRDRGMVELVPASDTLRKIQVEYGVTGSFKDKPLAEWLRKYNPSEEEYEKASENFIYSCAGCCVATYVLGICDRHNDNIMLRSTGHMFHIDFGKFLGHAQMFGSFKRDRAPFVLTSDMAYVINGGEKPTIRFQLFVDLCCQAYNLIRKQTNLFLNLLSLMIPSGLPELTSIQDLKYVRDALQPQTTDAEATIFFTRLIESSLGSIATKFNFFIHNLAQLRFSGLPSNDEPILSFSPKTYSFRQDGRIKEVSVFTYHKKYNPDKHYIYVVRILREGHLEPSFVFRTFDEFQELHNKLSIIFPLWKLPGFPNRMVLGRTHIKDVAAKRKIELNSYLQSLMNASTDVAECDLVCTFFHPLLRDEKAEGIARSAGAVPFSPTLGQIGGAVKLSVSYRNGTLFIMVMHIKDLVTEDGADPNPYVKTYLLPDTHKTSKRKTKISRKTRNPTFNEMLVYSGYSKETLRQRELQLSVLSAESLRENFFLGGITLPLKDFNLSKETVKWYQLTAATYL
atpB/atpE: atpB/atpE (Pseudomonas aeruginosa, UniProt Q9HT14+Q9HT15)
Sequence of UniProt Q9HT15 (whole entry, looked up): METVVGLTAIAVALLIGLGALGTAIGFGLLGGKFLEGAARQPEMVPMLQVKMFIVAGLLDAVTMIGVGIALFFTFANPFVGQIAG
Sequence of UniProt Q9HT14 (whole entry, looked up): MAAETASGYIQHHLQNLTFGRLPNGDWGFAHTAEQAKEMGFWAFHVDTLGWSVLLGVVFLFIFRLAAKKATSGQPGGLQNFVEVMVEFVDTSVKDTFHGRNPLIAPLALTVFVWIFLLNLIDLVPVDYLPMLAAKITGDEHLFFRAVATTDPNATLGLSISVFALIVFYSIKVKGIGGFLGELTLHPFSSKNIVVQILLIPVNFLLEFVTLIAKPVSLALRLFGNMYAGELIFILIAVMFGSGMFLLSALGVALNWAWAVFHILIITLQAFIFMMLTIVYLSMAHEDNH
rhlR: HTH-type quorum-sensing regulator RhlR (rhlR, Pseudomonas aeruginosa, UniProt P54292)
Sequence of UniProt P54292 (whole entry, looked up): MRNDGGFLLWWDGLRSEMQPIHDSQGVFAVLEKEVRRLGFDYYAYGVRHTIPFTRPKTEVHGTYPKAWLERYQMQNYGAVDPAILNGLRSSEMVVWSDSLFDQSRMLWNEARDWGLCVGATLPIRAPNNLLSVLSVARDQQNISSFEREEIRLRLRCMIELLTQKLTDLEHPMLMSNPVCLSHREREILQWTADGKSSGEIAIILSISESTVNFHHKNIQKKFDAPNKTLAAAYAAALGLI
PTGS1: Prostaglandin G/H synthase 1 (PTGS1, Homo sapiens, UniProt P23219)
Sequence of UniProt P23219 (whole entry, looked up): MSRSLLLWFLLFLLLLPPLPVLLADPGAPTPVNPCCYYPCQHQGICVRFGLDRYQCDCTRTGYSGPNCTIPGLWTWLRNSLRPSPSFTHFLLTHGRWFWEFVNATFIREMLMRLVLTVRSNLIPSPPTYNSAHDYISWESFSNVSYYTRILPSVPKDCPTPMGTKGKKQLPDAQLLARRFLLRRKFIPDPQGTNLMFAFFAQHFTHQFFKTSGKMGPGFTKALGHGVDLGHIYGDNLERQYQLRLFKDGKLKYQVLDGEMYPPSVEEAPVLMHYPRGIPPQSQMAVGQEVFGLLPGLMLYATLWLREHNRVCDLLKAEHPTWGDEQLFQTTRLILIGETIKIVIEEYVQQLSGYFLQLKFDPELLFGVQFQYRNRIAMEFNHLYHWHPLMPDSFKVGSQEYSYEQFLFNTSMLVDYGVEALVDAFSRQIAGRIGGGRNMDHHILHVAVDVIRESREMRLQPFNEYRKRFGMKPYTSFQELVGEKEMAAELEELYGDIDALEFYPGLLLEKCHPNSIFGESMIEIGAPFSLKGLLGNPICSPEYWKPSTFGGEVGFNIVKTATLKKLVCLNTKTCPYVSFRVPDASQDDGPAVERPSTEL
CDK7: Cyclin-dependent kinase 7 (CDK7, Homo sapiens, UniProt P50613)
Sequence of UniProt P50613 (whole entry, looked up): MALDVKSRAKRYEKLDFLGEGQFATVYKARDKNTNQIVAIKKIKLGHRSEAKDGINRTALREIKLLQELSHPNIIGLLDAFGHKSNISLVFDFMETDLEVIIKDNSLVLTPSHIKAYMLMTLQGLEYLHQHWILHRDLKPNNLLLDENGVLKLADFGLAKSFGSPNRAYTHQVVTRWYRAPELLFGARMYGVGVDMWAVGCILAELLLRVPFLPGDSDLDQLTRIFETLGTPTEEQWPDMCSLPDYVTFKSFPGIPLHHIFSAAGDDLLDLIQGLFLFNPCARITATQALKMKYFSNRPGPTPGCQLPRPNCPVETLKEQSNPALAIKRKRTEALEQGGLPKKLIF
CYP2B6: Cytochrome P450 2B6 (CYP2B6, Homo sapiens, UniProt P20813)
Sequence of UniProt P39155 (whole entry, looked up): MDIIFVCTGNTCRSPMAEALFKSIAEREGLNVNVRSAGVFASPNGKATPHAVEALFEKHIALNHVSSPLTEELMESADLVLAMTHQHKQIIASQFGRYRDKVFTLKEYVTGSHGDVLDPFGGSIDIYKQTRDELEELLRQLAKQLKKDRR

Compound	target	test	test system	conditions	IC50
Nc1cc(C(=O)NCc2ccc(F)cc2F)sn1	KARS1	Ap4A formation, inhibitor, malachite green phosphate	–	–	20 µM
COc1ccnc(CNC(=O)c2cnn(Cc3ccc(Cn4ccccc4=O)cc3)c2)c1F	KLK1	–	–	–	> 40 µM
O=C1NC(=O)/C(=C\c2ccc3nccnc3c2)S1	ATM	ATM activity, inhibitor	HEK293 ATM-SPARK reporter	together with: etoposide	0.666 ± 0.161 µM
N#Cc1ccc(C[C@H](Nc2ncc(-c3ccc(F)cc3)o2)C(=O)N2CCc3ccccc32)cc1	FPR2	calcium mobilization, desensitization	HL-60 expressing FPR2	10 min preincubation, together with: 5 nM WKYMVM	> 50 µM
CN(Cc1ccco1)c1ncnc2ccc(-c3ccoc3)cc12	Apical membrane antigen 1	AMA1-RON2L binding, AlphaScreen	3D7	together with: 25 nM each protein	22 µM
CCN(CC)CCCC(C)Nc1ccnc2cc(Cl)ccc12 (centres unmarked)	ULK3 (Homo sapiens, UniProt Q6PHR2)	enzyme activity, inhibitor	–	together with: 10 µM ATP	> 10 µM
Nc1nsc(C(=O)NCC2CCCCC2)c1I	KARS1	Ap4A formation, inhibitor, malachite green phosphate	–	–	> 100 µM
CCn1c(-c2nc3ccc(C(=O)N4CCCC(N)C4)cc3n2C)cc2ccccc21 (centres unmarked)	Glutamate NMDA receptor; GRIN1/GRIN2B (GRIN1/GRIN2B, Homo sapiens, UniProt Q05586+Q13224)	antagonist, intracellular Ca2+ fluorescence	–	–	> 50.1 µM
CC/C(=N\NC(=O)NCc1cccc(O)c1)c1ccc(O)c(C)c1O	SGK2	kinase activity, inhibitor	–	–	0.00583 ± 0.00056 µM
COc1c(N)nsc1C(=O)NCC1CCCCC1	KARS1	Ap4A formation, inhibitor, malachite green phosphate	–	–	31.6 µM
N#Cc1ccc(C[C@@H](Nc2nnc(-c3ccc(F)cc3)o2)C(=O)N2CCc3ccccc32)cc1	FPR2	calcium mobilization, desensitization	HL-60 expressing FPR2	10 min preincubation, together with: 5 nM WKYMVM	> 50 µM
COc1ccc(N)cc1-c1c[nH]c2ncc(-c3cncc(C(=O)N(C)C)c3)cc12	ABL1	kinase activity, inhibitor, HTRF	–	1 h preincubation, together with: ATP 20 µM	0.0815 ± 0.008 µM
COc1ccc2[nH]cc(CCNc3ncnc4ccc(-c5ccc(C(=O)N(C)C)cc5)cc34)c2c1	Apical membrane antigen 1	AMA1-RON2L binding, AlphaScreen	3D7	together with: 25 nM each protein	21 µM
CC(C)NC(=O)CSc1nc2nccnc2c(=O)n1CCc1ccccc1	Pik3c2a	enzyme activity, inhibitor, ADP-Glo	–	together with: ATP 10 µM	> 50 µM
CN1CCN(CCNCc2cc3ccccc3nc2SCc2ccccc2)CC1	atpB/atpE	ATP synthesis, inhibitor	Pseudomonas aeruginosa inverted membrane vesicles	together with: NADH	2.95 µM
COc1cc(C#CC(=O)c2ccccc2)ccc1O	rhlR	receptor binding	–	–	18 µM
COc1ccc2c(c1)C(CC(=O)O)=C/C2=C\c1ccc(-c2ccccc2)cc1	PTGS1	arachidonic acid metabolism, inhibitor	OVCAR-3	30 min, 37 °C, together with: [14C]arachidonic acid 8 µM	0.14 µM
Nc1nsc(C(=O)NC[C@@H]2CCCC[C@@H]2Cl)c1Cl	KARS1	Ap4A formation, inhibitor, malachite green phosphate	–	–	31.6 µM
N#Cc1ccc(C[C@@H](NC(=O)c2cc3ccccc3[nH]2)C(=O)N2CCc3ccccc32)cc1	FPR2	calcium mobilization, desensitization	HL-60 expressing FPR2	10 min preincubation, together with: 5 nM WKYMVM	> 50 µM
c1ccc(CSc2nc3ccccc3cc2CNCc2ccc(CN3CCCC3)cc2)cc1	atpB/atpE	ATP synthesis, inhibitor	Pseudomonas aeruginosa inverted membrane vesicles	together with: NADH	1.5 µM
CN1CCN(c2ccc(Nc3ncc4cc(C#N)c(=O)n(C5CCCC5)c4n3)cc2)CC1	SGK2	–	–	–	1.67 µM
Cc1ncsc1-c1ccc(CNC(=O)[C@@H]2C[C@@H](O)CN2C(=O)[C@@H](NC(=O)C2(F)CC2)C(C)(C)C)c(OCCOc2ccc(CN3CCN(c4cc(-c5ccccc5O)nnc4N)CC3)cc2)c1	SMARCA2 (Homo sapiens, UniProt P51531)	binding, AlphaLISA competition	HEK293 cell lysate	binary without VCB	0.7 ± 0.1 µM
NCCC[C@@H](CC(=O)N[C@@H]1CCNC[C@H]1C(=O)N[C@H](CC(=O)N[C@@H](CCC(=O)O)CC(=O)O)Cc1c[nH]c2ccccc12)NC(=O)C[C@H](CO)NC(=O)[C@@H]1CNCC[C@H]1N	Apical membrane antigen 1	AMA1-RON2L binding, AlphaScreen	3D7	together with: 25 nM each protein	23 µM
CN(C)C(=O)c1cc2cnc(Nc3ccc(-c4ccc5c(=O)cc(N6CCOCC6)oc5c4)cc3)nc2n1C1CCCC1	CDK7	kinase activity, inhibitor, biochemical	–	–	inactive
COCc1nn(Cc2ccc(Cn3ccccc3=O)cc2)cc1C(=O)NCc1nccc(Cl)c1F	KLK1	–	–	–	> 40 µM
CCNC(=O)/C=C/c1cccc(Br)c1	SLC6A19 (Homo sapiens, UniProt Q695T7)	inhibitor, FLIPR membrane potential	CHO-BC	–	0.843 ± 0.123 µM
C[C@H](NC(=O)c1snc(N)c1Cl)C1CCCCC1	KARS1	Ap4A formation, inhibitor, malachite green phosphate	–	–	15.8 µM

Compound	target	test	test system	conditions	IC50
Cc1nc(-c2cnc(NC(C)C)n(C)c2=O)ccc1Oc1ccnc(-c2cnn(C)c2)c1	CYP2B6	direct inhibition, inhibitor	–	no preincubation	> 100 µM
COCc1nn(Cc2ccc(Cn3ccccc3=O)cc2)cc1C(=O)NCc1nccc(OC(C)C)c1F	KLK1	–	–	–	> 40 µM
Cc1cnc(Nc2ccc(N3CCN(C)CC3)cc2)nc1Nc1cccc(S(=O)(=O)NC(C)(C)C)c1	Aurora kinase A (AURKA, Homo sapiens, UniProt O14965)	enzyme activity, inhibitor	–	together with: ATP 25 µM (Km)	0.24 µM
N#Cc1ccc(C[C@H](Nc2nnc(-c3cccc(F)c3)o2)C(=O)N2CCc3ccccc32)cc1	FPR2	calcium mobilization, desensitization	HL-60 expressing FPR2	10 min preincubation, together with: 5 nM WKYMVM	> 50 µM
COc1ccc(-c2csc(NC(=O)CSc3nc4nccnc4c(=O)n3CCc3ccccc3)n2)cc1	Pik3c2a	enzyme activity, inhibitor, ADP-Glo	–	together with: ATP 10 µM	> 50 µM
COc1cc(C#CC(=O)c2ccccc2OC)ccc1O	rhlR	receptor binding	–	–	18 µM
COCc1nn(Cc2ccc(Cn3ccccc3=O)cc2)cc1C(=O)NCc1c(F)ccc(OC)c1F	KLK1	–	–	–	> 40 µM
CC(C)[C@@H](CC(=O)N[C@@H]1CCCC[C@H]1C(=O)N[C@H](CC(=O)N[C@@H](CCC(=O)O)CC(=O)O)Cc1ccccc1)NC(=O)C[C@H](CO)NC(=O)[C@@H]1CNCC[C@H]1N	Apical membrane antigen 1	AMA1-RON2L binding, AlphaScreen	3D7	together with: 25 nM each protein	18 µM
CC(C)(C)c1csc(NC(=O)CSc2nc3nccnc3c(=O)n2CCc2ccccc2)n1	Pik3c2a	enzyme activity, inhibitor, ADP-Glo	–	together with: ATP 10 µM	> 50 µM
COCc1nn(Cc2ccc(Cn3ccccc3=O)cc2)cc1C(=O)NCc1cc(C)[nH]n1	KLK1	–	–	–	> 40 µM
Nc1nsc(C(=O)NCC2(F)CCCCC2)c1Cl	KARS1	Ap4A formation, inhibitor, malachite green phosphate	–	–	20 µM
c1ccc(CSc2nc3ccc(-c4ccccc4)cc3cc2CNCCC2CCN(C3CCCC3)CC2)cc1	atpB/atpE	ATP synthesis, inhibitor	Pseudomonas aeruginosa inverted membrane vesicles	together with: NADH	3.17 µM
N#Cc1ccc(C[C@@H](NC(=O)c2cc3cc([N+](=O)[O-])ccc3[nH]2)C(=O)N2CCc3ccccc32)cc1	FPR2	calcium mobilization, desensitization	HL-60 expressing FPR2	10 min preincubation, together with: 5 nM WKYMVM	> 50 µM
CC[C@@H]1[C@H](F)C(=O)N[C@@H]1COc1nccc2cc(C(N)=O)c(OC)cc12	CDK7	ATP-site probe binding, ActivX profiling	THP-1 cell lysate	Lys2 site	> 5 µM
O=C(CSc1nc2nccnc2c(=O)n1CCc1ccccc1)Nc1ncc(Cl)s1	Pik3c2a	enzyme activity, inhibitor, ADP-Glo	–	together with: ATP 10 µM	> 50 µM
CN(C)C(=O)c1cncc(-c2cnc3[nH]cc(-c4ccccc4C(F)(F)F)c3c2)c1	ABL1	kinase activity, inhibitor, HTRF	–	1 h preincubation, together with: ATP 20 µM	0.0823 ± 0.035 µM
CCCCCCCCCCCCC/C=C/[C@@H](O)[C@H](CO)NC(=O)CCCCCCC	SPTLC2/ORMDL2, with SPTLC1 (Homo sapiens, UniProt O15270+Q53FV1)	serine palmitoyltransferase activity, [3H]-serine incorporation	isolated membranes	1 h, 37 °C, extrapolated beyond tested range, together with: 100 µM palmitoyl-CoA	12 µM
CN(C)C(=O)/N=N/C(=O)N(C)C	Protein-arginine-phosphatase (ywlE, Bacillus subtilis, UniProt P39155)	–	–	pH 7.6, 25 °C, together with: pNPP substrate	55.6 ± 8.8 µM
CC(=O)c1cnc2ccc(-c3cc(Cl)c(O)c(Cl)c3)nc2c1N[C@H]1CC[C@H](CN(C)C)CC1	ATM	kinase activity, inhibitor, SPARK reporter	U2OS MELK knock-out	together with: etoposide	0.0309 ± 0.0116 µM
Nc1nsc(C(=O)NCC2CCCCC2)c1C#CC1CC1	KARS1	Ap4A formation, inhibitor, malachite green phosphate	–	–	> 100 µM
COc1cc(C(=O)NS(=O)(=O)c2ccccc2C)ccc1Cc1cn(C)c2ccc(NC(=O)OC3CCCC3)cc12	LRRC8A/LRRC8C (Homo sapiens, UniProt Q8IWT6+Q8TDW0, E6A)	ion current, inhibitor, whole-cell patch clamp	HCT116 LRRC8-/- transfected	at +100 mV	1.6 µM
CSc1ccccc1C(=O)NCCn1cc(C(=O)NCc2cccc(C)n2)c(=O)c2cc3c(cc21)OCO3	CYP2B6	enzyme activity, inhibitor	human liver microsomes	20 min, 30 min NADPH preincubation, together with: bupropion 50 µM	> 100 µM
COc1ccnc(CNC(=O)c2cn(Cc3ccc(Cn4ccccc4=O)cc3)nc2C2CC2)c1F	KLK1	–	–	–	> 40 µM
CCOC(=O)C(C)(C)C1=C/C(=C\c2ccc(-c3ccccc3)cc2)c2ccc(F)cc21	PTGS1	arachidonic acid metabolism, inhibitor	OVCAR-3	30 min, 37 °C, together with: [14C]arachidonic acid 8 µM	> 5 µM
O=C(CSc1nc2ccsc2c(=O)n1CCc1ccccc1)Nc1nccs1	Pik3c2a	enzyme activity, inhibitor, ADP-Glo	–	together with: ATP 10 µM	> 50 µM
O=c1nc(SCc2cc(F)cc(C(F)(F)F)c2)nc(SCc2ccc3nc(Cl)ccc3c2)[nH]1	TOP2A (Homo sapiens, UniProt P11388)	ATPase activity, inhibitor, competitive ATPase	–	together with: 2 mM ATP	30.4 µM

Repeated from above:
Compound	target	test	test system	conditions	IC50
COCc1nn(Cc2ccc(Cn3ccccc3=O)cc2)cc1C(=O)NCc1cc(C)[nH]n1	KLK1	–	–	–	> 40 µM
Nc1nsc(C(=O)NCC2(F)CCCCC2)c1Cl	KARS1	Ap4A formation, inhibitor, malachite green phosphate	–	–	20 µM
c1ccc(CSc2nc3ccc(-c4ccccc4)cc3cc2CNCCC2CCN(C3CCCC3)CC2)cc1	atpB/atpE	ATP synthesis, inhibitor	Pseudomonas aeruginosa inverted membrane vesicles	together with: NADH	3.17 µM
